Results collected from several papers.

The half-life of `CC/C(=C(\c1ccccc1)c1ccc(OCCN(C)C)cc1)c1ccccc1` is reported as 6.63 h (CD-1 mouse, male, lung; intraperitoneal, 3 mg/kg).
`CCC(CNc1nc(-c2cn3ccnc3cc2C)nc2ccccc12)c1ccccc1` (stereo not shown) has a half-life of 0.15 h (LC-MS parent depletion; human liver microsomes).
The half-life of `CC(C)C[C@@H](NC(=O)[C@H](Cc1ccccc1)NC(=O)CNC(=O)[C@@H](C)NC(=O)[C@H](Cc1ccc(O)cc1)NC(=O)[C@@H]1CCCN1C(=O)[C@@H]1CCCN1C(=O)c1ccc[n+](C)c1)C(=O)O` is reported as 0.2 h (HPLC-UV; rat mid-brain homogenate; 100 µM, 37 °C).
For `COc1cc2c(cc1OC)CN(CCc1ccc(NC(=O)c3cccc4c(=O)c5cccc(OC)c5[nH]c34)cc1)CC2`, the half-life was 18.7 h (CD-1 mouse, male, plasma; intraperitoneal, 30 mg/kg).
For `[Cl][Ru-]([Cl])([Cl])[Cl].[Na+].c1ccc2[nH]ncc2c1.c1ccc2[nH]ncc2c1`, the half-life was 128 h (ICP-MS, item: total ruthenium; advanced solid tumour patients, plasma; iv infusion, 20 mg/m2, cycle 1 cohort mean).
`CCC[C@@](N)(CO)CCc1ccc(OCCCCCC(C)C)cc1` gave a half-life of 20.7 h (dog, male hounds, plasma; oral capsule, 10 mg/kg, median).
`CC(C)CC(=O)OC[C@H]1O[C@@](C#N)(c2ccc3c(N)ncnn23)[C@H](O)[C@@H]1O` has a half-life of > 6.18 h (hepatocyte-free incubation solution control).
`Cn1ncc(-c2nc(N[C@H]3CC[C@H](N)CC3)ncc2Cl)c1CC1CC1` has a half-life of 38 h (HPLC-MS/MS; patients, plasma; oral, 21 mg, day 5).
With `C[C@]1(CO)Cc2ncn(-c3ccc(C#N)c(Cl)c3)c2C(=O)O1` the half-life was 5.9 h (healthy Japanese adults, plasma; 80 mg single dose).
The half-life of `COc1cccc2c1CCCC2CCCN1CCN(C2CCCCC2)CC1` (stereo not shown) is reported as 2.5 h (CD-1 mouse, male, lung; intraperitoneal, 1 mg/kg).
